Measured values pooled from the literature.
A part holds a random share of what one study measured.

Sample 1 — method: DNA-protein interaction ELISA; form: double-stranded DNA, one strand shown; medium: in vitro, bacterial lysate; concentration: not given; notes: whole dsDNA probe, crude lysate protein; relative to: highest signal in screen; direction: higher = stronger binding; endpoint: relative absorbance
Target: Probable WRKY transcription factor 33, N-terminal DNA-binding domain (WRKY33, Arabidopsis thaliana, UniProt Q8S8P5, residues 169-264)
Construct (chain): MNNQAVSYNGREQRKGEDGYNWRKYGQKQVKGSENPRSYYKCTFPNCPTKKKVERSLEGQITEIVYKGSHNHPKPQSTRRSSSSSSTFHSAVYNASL
AAAAAACCGTATGTATATCTATATGTAAAA: 24.6 % of maximum
AAAAAACCAACTCTCTTTCGGACTATAAAA: 17.9 % of maximum
AAAAAAAGTAGTTACTGCGAAAGTCTAAAA: 25.3 % of maximum
AAAAAATTCCGGCTTGACGCTGCATAAAAA: 24.8 % of maximum
AAAAAATGTCTTCTTACACCCTCTAGAAAA: 23.5 % of maximum
AAAAAAGGTCCAGTCCACGTCATCAGAAAA: 28.1 % of maximum
AAAAAAGGGCCCACTATCGACGTCAAAA: 21.5 % of maximum
AAAAAATGGAAGGAGAGGGATGAAATAAAA: 20.5 % of maximum

Sample 2 — read-out: cell-free assay; concentration: 10 µM; endpoint: inhibition
Target: 5-hydroxytryptamine receptor 5A (HTR5A, Homo sapiens, UniProt P47898)
UniProt P47898, sequence (whole entry, looked up): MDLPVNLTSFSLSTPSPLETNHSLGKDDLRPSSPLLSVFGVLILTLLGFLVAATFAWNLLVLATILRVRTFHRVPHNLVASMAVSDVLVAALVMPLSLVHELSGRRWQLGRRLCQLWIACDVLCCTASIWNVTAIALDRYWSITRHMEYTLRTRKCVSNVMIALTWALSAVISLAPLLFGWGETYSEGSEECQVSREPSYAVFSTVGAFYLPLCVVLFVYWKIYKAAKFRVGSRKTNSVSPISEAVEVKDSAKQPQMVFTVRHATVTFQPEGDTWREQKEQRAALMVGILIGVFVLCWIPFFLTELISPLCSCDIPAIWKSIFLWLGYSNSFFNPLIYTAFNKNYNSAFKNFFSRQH
C[C@H](NC(=O)Nc1cc2[nH]ncc2c(CO)n1)c1ccccn1: 9.46%
Nc1c(C(=O)NCc2ccc(C(=O)NCCCC3CCCCC3)cc2)cnn1-c1ccccc1: 9.6%
C[C@@H]1CN(c2cc(-c3nn(C)c4ccc(OC5(C)CC5)cc34)ncn2)C[C@H](C)O1: -6.76%
COc1ccc2c(c1)O[C@H](c1ccc(OC)c(OC)c1)C[C@@H]2NC(=O)C1(c2ccc3c(c2)OC(F)(F)O3)CC1: -7.95%
O=C(Nc1cccnn1)N1CC(CC=Cc2cncc(Oc3ccc(C(F)(F)F)cn3)n2)C1: 7.85%
O=C(NCCCC1CCCCC1)c1ccc(CNC(=O)c2cnn(-c3ccccc3)c2C(F)(F)F)cc1: 17%
O=C(Nc1cnc(Oc2ccc(F)cc2)nc1)N1CCc2ncccc2[C@@H]1c1ccc(F)cc1: -11.2%
O=C(NCc1ncc(C(F)(F)F)cc1Cl)c1ccc2c(c1)C1(CCS(=O)(=O)CC1)[C@@H](C1CC1)N2S(=O)(=O)c1ccc(F)cc1: -10.8%
Cc1nc(Cc2cccc(C(F)(F)F)c2)sc1-c1ccc(C(N)=O)nc1: 3.99%
c1ccc(N2CCN(Cc3nc4ccccc4[nH]3)CC2)nc1: 10.6%
COCCc1ccc(-c2c(C)nc3c(N4CCOCC4)ccnn23)cn1: 3.93%
Cn1cc(Cl)c2c(Oc3c(F)cc(Nc4cc(Cl)nc(N)n4)cc3F)ccnc21: 0.35%

Sample 3 — read-out: enzyme activity; mode: inhibitor; concentration: 0.5 µM; relative to: control; endpoint: remaining activity
Target: Phosphorylase b kinase gamma catalytic chain, skeletal muscle/heart isoform (PHKG1, Homo sapiens, UniProt Q16816)
Construct (Q16816 1-387): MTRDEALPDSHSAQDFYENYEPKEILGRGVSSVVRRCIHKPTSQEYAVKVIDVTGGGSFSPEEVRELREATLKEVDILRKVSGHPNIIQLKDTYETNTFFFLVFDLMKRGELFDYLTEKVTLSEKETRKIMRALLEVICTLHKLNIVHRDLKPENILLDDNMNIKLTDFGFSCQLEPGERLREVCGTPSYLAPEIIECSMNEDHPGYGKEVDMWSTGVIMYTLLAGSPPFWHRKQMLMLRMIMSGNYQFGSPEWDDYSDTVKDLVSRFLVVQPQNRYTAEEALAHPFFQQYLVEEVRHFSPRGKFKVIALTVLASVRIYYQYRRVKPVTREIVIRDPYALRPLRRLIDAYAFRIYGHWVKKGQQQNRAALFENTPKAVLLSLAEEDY
CO[C@H]1C[C@@H]2CC[C@@H](C)[C@@](O)(O2)C(=O)C(=O)N2CCCC[C@H]2C(=O)O[C@H]([C@H](C)C[C@@H]2CC[C@@H](O)[C@H](OC)C2)CC(=O)[C@H](C)/C=C(\C)[C@@H](O)[C@@H](OC)C(=O)[C@H](C)C[C@H](C)/C=C/C=C/C=C/1C: 93%
CNC(=O)c1cc(Oc2ccc(NC(=O)Nc3ccc(Cl)c(C(F)(F)F)c3)cc2)ccn1: 94.3%
Oc1ccc(-c2nc(-c3ccncc3)c(-c3ccc(F)cc3)[nH]2)cc1: 94.2%
OCC(O)CCON=C1C(c2c(O)[nH]c3ccccc23)=Nc2ccccc21 (centres unmarked): 8.06%
O=C(Nc1cccc(Nc2cc(Nc3cccc(C(F)(F)F)c3)ncn2)c1)C1CC1: 100%
COc1ccc(OC)c2c(=S)c3ccccc3[nH]c12: 83%
COc1cc2nccc(Oc3ccc(NC(=S)NC(=O)c4ccccc4C)cc3)c2cc1OC: 89.2%
Cc1ccc(NC(=O)c2ccc(CN3CCN(C)CC3)cc2)cc1Nc1nc(-c2cccnc2)cs1: 92.2%
Nc1ncnc2n[nH]c(Nc3ccc(F)cc3)c12: 87.5%
CC(C)[C@H](CO)Nc1nc(Nc2cc(N)cc(Cl)c2)c2ncn(C(C)C)c2n1: 81.1%
Cn1c2ccccc2c2c3c(c4c5ccccc5n(CCC#N)c4c21)CNC3=O: 1.76%
O=C1NC(=O)C(c2cn(CCCO)c3ncccc23)=C1c1cnccn1: 87.2%
Cc1cccc(-c2[nH]c(C(C)(C)C)nc2-c2ccc3c(c2)OCO3)n1: 87.6%

Sample 4 — method: protein-binding microarray; form: double-stranded DNA, one strand shown; medium: in vitro; concentration: 250 nM; notes: 60-bp whole probe; with: salmon DNA 0.4 mg/ml; relative to: random background probes; direction: higher = stronger binding; endpoint: log fluorescence; constant ends, left off below: GCCTAGCAC … GTCTTGATTCGCTTGACGCTGCTG
Target: Interferon regulatory factor 5, full length, phosphomimetic (IRF5, Homo sapiens, UniProt Q13568-2, residues 1-514, K96S/S451D/S453D/S456D/S462D)
GACGAACGGGGGACTGGAGACGTGCTA: -0.228 z-score
TTAGGTCTCCTATTGCTTTAGTGCTAG: -0.462 z-score
TCTTTTTTTCTTTTATTAGTGTGCTAG: 1.8 z-score
GTAGGACTGGACTATCGGTTAGTGCTA: 5.41 z-score
TTAGGTATCGACATTGGGTTAGTGCTA: 2.64 z-score
TTAGAACTGAGTTTGGATTAGTGCTAG: -0.23 z-score
TCATTTTTTTCATTATTACTGTGCTAG: 2.04 z-score
CTAGGACTGGGTCTCGGTTAGTGCTAG: -0.366 z-score

For quick reference, copied from above (sample 3):
Nc1ncnc2n[nH]c(Nc3ccc(F)cc3)c12: 87.5%
COc1cc2nccc(Oc3ccc(NC(=S)NC(=O)c4ccccc4C)cc3)c2cc1OC: 89.2%
Cc1cccc(-c2[nH]c(C(C)(C)C)nc2-c2ccc3c(c2)OCO3)n1: 87.6%
Cn1c2ccccc2c2c3c(c4c5ccccc5n(CCC#N)c4c21)CNC3=O: 1.76%
